Measured values of several laboratories.
Each line is one published result; not all experiments were run side by side. “And” joins repeats or separate records; there may be more than shown. Numbers after ± are the reported error.
UCHL1: Ubiquitin carboxyl-terminal hydrolase isozyme L1 (UCHL1, Homo sapiens, UniProt P09936)
UniProt P09936, sequence (whole entry, looked up): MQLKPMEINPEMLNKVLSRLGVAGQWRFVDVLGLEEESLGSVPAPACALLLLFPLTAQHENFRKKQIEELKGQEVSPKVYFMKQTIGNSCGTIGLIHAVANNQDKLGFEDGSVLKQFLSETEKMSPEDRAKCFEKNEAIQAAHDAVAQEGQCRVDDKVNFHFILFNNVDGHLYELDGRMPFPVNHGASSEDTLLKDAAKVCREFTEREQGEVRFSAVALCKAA
UniProt P42336, sequence (whole entry, unmodified, looked up): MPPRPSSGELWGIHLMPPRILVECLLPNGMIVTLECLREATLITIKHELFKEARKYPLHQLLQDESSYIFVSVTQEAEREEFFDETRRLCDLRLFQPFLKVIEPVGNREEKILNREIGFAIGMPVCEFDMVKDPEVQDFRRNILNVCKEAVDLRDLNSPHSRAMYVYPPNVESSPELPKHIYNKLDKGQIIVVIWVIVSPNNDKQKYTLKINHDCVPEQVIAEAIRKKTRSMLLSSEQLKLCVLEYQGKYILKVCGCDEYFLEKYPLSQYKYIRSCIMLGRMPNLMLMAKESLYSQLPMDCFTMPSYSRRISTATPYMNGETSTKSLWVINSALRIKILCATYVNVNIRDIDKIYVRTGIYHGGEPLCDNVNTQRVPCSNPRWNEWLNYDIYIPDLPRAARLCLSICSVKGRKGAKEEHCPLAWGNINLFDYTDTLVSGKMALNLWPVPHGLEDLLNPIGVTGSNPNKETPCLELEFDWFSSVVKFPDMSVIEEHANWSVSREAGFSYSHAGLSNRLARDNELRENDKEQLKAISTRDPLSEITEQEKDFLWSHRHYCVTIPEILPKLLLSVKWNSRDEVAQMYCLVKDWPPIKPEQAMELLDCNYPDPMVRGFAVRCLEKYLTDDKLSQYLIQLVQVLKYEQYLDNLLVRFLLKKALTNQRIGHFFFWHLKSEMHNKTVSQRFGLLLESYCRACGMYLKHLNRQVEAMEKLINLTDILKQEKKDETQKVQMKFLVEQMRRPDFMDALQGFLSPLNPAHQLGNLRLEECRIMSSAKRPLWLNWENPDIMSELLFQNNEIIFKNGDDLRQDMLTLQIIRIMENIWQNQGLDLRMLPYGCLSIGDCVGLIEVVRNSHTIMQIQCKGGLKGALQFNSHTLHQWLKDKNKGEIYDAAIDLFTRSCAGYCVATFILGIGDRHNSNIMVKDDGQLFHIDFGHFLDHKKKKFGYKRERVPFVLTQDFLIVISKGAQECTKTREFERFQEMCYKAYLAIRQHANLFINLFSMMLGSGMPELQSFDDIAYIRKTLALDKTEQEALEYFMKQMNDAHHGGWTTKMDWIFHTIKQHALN
UniProt P42680, sequence (whole entry, looked up): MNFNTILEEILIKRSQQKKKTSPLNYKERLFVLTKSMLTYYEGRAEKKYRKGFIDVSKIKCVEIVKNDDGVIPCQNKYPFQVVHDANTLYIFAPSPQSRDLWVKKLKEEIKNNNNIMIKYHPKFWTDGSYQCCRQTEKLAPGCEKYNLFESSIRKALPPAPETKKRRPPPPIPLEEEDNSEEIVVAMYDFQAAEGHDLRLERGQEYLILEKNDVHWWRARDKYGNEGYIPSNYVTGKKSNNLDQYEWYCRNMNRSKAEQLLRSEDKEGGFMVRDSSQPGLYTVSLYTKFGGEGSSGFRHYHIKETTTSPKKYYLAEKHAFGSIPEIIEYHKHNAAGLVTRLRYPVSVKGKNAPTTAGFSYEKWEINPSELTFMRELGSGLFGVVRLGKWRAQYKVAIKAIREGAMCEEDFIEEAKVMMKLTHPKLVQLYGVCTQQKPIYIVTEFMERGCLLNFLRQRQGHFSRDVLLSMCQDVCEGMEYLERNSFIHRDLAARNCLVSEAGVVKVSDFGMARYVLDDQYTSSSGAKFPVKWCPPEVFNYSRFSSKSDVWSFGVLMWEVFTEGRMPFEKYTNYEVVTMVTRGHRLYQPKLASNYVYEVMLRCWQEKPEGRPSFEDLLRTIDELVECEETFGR
UniProt Q96SB4, sequence (whole entry, looked up): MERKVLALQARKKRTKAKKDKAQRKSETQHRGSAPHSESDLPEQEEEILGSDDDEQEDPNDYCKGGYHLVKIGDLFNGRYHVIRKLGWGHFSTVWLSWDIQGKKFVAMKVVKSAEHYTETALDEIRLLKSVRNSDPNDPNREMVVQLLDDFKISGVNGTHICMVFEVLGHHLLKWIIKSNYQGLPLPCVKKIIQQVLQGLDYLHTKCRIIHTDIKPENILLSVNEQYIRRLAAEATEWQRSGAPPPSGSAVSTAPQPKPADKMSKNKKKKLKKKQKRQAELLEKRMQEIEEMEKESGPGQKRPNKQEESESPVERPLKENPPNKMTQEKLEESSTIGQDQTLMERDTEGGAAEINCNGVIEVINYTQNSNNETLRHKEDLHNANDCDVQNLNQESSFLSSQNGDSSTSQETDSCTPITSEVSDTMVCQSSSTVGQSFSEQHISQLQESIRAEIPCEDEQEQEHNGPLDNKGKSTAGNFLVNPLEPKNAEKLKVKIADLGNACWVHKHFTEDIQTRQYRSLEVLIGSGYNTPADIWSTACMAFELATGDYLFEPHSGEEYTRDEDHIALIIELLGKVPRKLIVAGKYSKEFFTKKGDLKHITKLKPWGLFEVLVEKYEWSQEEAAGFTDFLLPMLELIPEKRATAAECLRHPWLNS
UniProt P07948, sequence (whole entry, looked up): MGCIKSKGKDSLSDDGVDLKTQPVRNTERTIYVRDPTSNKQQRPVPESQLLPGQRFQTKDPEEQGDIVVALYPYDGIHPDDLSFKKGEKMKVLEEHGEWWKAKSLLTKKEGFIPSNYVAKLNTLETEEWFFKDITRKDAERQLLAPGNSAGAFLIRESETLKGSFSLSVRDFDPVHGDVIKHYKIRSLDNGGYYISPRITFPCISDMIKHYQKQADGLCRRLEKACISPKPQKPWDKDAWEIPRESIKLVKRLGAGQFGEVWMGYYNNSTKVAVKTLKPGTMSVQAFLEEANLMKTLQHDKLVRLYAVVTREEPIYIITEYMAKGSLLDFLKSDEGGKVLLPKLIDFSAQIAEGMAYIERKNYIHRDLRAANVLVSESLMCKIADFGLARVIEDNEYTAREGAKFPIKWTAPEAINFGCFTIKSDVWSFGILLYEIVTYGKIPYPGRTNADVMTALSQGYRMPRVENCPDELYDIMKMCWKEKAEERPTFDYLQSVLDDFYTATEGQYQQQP
UniProt P45983, sequence (whole entry, looked up): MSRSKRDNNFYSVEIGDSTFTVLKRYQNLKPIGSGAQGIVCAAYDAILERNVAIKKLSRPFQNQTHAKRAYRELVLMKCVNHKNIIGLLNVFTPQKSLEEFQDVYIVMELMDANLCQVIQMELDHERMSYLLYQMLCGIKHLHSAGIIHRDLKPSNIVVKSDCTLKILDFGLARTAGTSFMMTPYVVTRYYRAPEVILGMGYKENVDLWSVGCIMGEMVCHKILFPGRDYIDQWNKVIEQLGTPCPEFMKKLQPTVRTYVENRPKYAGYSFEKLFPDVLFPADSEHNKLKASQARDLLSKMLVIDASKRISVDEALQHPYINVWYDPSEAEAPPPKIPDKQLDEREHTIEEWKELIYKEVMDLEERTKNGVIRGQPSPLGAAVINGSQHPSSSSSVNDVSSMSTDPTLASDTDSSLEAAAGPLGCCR
UniProt P42679, sequence (whole entry, looked up): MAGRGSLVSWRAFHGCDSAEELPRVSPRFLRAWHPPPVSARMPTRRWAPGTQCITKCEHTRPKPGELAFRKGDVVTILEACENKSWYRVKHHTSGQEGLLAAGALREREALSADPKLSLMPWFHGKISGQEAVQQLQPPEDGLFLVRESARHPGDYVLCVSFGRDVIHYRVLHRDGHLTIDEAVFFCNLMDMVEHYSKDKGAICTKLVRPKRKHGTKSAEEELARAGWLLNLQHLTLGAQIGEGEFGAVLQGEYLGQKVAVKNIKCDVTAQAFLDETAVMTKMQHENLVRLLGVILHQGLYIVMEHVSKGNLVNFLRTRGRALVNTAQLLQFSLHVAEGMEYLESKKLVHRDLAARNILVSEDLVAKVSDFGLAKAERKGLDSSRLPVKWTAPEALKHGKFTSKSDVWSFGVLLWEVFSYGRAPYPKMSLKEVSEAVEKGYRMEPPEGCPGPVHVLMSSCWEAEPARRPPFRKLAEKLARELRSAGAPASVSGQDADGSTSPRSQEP
UniProt P97821, sequence (whole entry, looked up): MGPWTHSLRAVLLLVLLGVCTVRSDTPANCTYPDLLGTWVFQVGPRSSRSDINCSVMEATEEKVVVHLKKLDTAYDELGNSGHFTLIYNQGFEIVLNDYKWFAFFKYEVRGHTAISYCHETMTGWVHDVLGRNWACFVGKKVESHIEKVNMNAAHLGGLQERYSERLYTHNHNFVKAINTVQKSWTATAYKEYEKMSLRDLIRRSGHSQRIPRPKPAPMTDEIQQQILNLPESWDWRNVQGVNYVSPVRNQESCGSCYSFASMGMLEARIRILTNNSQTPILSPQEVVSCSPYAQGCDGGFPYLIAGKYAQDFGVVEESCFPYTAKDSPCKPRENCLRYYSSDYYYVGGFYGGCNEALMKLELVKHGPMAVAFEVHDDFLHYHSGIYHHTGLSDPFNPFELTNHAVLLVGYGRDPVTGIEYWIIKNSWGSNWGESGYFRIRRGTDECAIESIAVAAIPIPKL

`COc1cc(F)ccc1-c1ncnc(Nc2cccc(C[S@](C)(=N)=O)c2)n1` has a remaining activity of 95% (ULK2 (Homo sapiens, UniProt Q8IYT8); kinase activity; 10 µM, added: 10 µM ATP).
`CNc1ncc2c(/C=C/C(=O)N3CCC(OC)CC3)nn(Cc3cccc(C(F)(F)F)c3)c2n1` gave a remaining activity of 102% (SRPK1 (Homo sapiens, UniProt Q96SB4); kinase activity, inhibitor; 1 µM; reference: untreated control).
`COc1cc2nc(N(CCCN(C)C)C(=O)c3ccc(S(=O)(=O)N4CCc5ccccc54)cc3)sc2cc1OC` gave an inhibition of 17% (Trypanosoma cruzi; reporter translation, Renilla luciferase mRNA translation; cell-free extract; 40 µM; reference: DMSO).
`Cc1cccc(C)c1C(=O)OCC(=O)[C@H](CCCCN)NC(=O)[C@H](CCCNC(=N)N)NC(=O)OCc1ccccc1` gave a remaining activity of 100% (Ctsc (Mus musculus, UniProt P97821); inhibitor; 0.1 µM, added: AMC fluorogenic substrate; reference: untreated).
With `C=CC(=O)NC(=O)NCc1ccccc1` the labelling was 10.6% (UCHL1; covalent, intact protein LC-MS; 12.5 µM).
For `Cc1cc(Nc2cc(N3CCN(C)CC3)nc(Sc3ccc(NC(=O)C4CC4)cc3)n2)[nH]n1`, the remaining activity was 100% (LRRK2 (Homo sapiens, UniProt Q5S007); kinase activity, KinaseProfiler; 0.03 µM, species human; reference: control).
For `CSc1ccc(CNS(=O)(=O)c2c(C)oc(C)c2C(=O)O)cc1C`, the remaining activity was 106% (malate dehydrogenase; enzyme activity, inhibitor; 200 µM, pH 7.0, 1% DMSO, aggregation counter-screen).
For `NC/C(=C\F)COc1cccc(Cn2c(=S)[nH]c(=O)c3[nH]cnc32)c1`, the remaining activity was 14.8% and 20.1% and 7.82% (Lactoperoxidase (LPO, Bos taurus, UniProt P80025); H2O2 electrode; 20 µM; reference: control).
With `O=C(NC1CCC1)c1ccc2nc(-c3cccc(NS(=O)(=O)NCCN4CCCCC4)c3)cn2c1` the remaining activity was 89% (MATK (Homo sapiens, UniProt P42679); enzyme activity; 10 µM).
`C=CC(=O)N1CCC[C@@H](n2nc(-c3ccc(Oc4ccccc4)cc3)c3c(N)ncnc32)C1` gave a remaining activity of 118% (TEC (Homo sapiens, UniProt P42680); 1 µM).
`O=S(=O)(NC(CCc1ccccc1)C(F)(F)F)c1cccc(Cl)c1O` (stereo not shown) gave a remaining activity of 112% (malate dehydrogenase; enzyme activity, inhibitor; 200 µM, pH 7.0, 1% DMSO, aggregation counter-screen).
With `Cc1cc(NC(=O)c2cccc(NC(=O)/C=C/CN(C)C)c2)ccc1Nc1nccc(-c2cccnc2)n1` the remaining activity was 0.031 (Mitogen-activated protein kinase 8, phosphorylated (MAPK8, Homo sapiens, UniProt P45983); enzyme activity after dialysis, inhibitor; 10 µM, 1 days, unit not given; reference: no inhibitor).
`Cn1ncc(S(=O)(=O)NC(c2ccc(Cl)cc2)c2cccc(Cl)c2)c1C(=O)O` (stereo not shown) gave a remaining activity of 89% (malate dehydrogenase; enzyme activity, inhibitor; 200 µM, pH 7.0, 1% DMSO, aggregation counter-screen).
With `c1ccc(Nc2nc(NCC3CCCO3)c3ccccc3n2)cc1` (stereo not shown) the inhibition was 57.5% (Trypanosoma cruzi; reporter translation, Renilla luciferase mRNA translation; cell-free extract; 40 µM; reference: DMSO).
`COc1ccc(F)cc1C(=O)NCc1ccc(-c2nn([C@@H](C)C(F)(F)F)c(N)c2C(N)=O)cc1` has a remaining activity of 77.1 ± 2.6% (LYN (Homo sapiens, UniProt P07948); kinase activity, inhibitor, HotSpot radiometric; 1000 nM, added: ATP at Km).
With `NC(=O)N1CCc2ccc(NS(=O)(=O)c3cc(Cl)cc(Cl)c3O)cc21` the remaining activity was 83% (malate dehydrogenase; enzyme activity, inhibitor; 200 µM, pH 7.0, 1% DMSO, aggregation counter-screen).
With `O=C(O)c1ccc(Nc2ncc3c(n2)-c2ccc(Cl)cc2C(c2c(F)cccc2F)=NC3)cc1` the remaining activity was 20% (human Yes(h); kinase activity; 1 µM).
The remaining activity of `COc1cc(-c2cncc3c2CN(C)Cc2cc(N4CCNCC4)ccc2-3)cc(OC)c1OC` is reported as 91% (Phosphatidylinositol 4,5-bisphosphate 3-kinase catalytic subunit alpha isoform, with p85 alpha (PIK3CA, Homo sapiens, UniProt P42336, H1047R); kinase activity; 1 µM, p110a(H1047R)/p85a)(h human, added: ATP 10 µM; reference: DMSO).
With `O=S(=O)(Nc1ccc(-c2ccco2)cc1F)c1cccc(Cl)c1O` the remaining activity was 85% (malate dehydrogenase; enzyme activity, inhibitor; 200 µM, pH 7.0, 1% DMSO, aggregation counter-screen).
For `COc1cc(Nc2ncc3c(n2)-c2ccc(Cl)cc2C(c2c(F)cccc2OC)=NC3)ccc1C(=O)O`, the remaining activity was 106% (CLK1; kinase activity; 1 µM).
`Cc1cncc(CC(=O)Nc2cccc(Cl)c2O)c1` has a remaining activity of 75% (malate dehydrogenase; enzyme activity, inhibitor; 200 µM, pH 7.0, 1% DMSO, aggregation counter-screen).
The labelling of `CC1CCCN(C(=O)C(NC(=O)C(C)Cl)c2cnn(C)c2)C1` (stereo not shown) is reported as 10.5% (UCHL1; covalent, intact protein LC-MS; 12.5 µM).
